Measured values gathered from unrelated publications.
Each line is one published result; not all experiments were run side by side. Numbers after ± are the reported error.
lecA: PA-I galactophilic lectin (lecA, Pseudomonas aeruginosa, UniProt Q05097)
Chain of UniProt Q05097 (whole entry, looked up): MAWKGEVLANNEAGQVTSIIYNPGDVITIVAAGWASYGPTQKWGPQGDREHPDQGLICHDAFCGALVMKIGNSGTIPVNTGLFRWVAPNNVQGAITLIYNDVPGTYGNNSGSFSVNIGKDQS
Chain of UniProt P43219 (whole entry, looked up): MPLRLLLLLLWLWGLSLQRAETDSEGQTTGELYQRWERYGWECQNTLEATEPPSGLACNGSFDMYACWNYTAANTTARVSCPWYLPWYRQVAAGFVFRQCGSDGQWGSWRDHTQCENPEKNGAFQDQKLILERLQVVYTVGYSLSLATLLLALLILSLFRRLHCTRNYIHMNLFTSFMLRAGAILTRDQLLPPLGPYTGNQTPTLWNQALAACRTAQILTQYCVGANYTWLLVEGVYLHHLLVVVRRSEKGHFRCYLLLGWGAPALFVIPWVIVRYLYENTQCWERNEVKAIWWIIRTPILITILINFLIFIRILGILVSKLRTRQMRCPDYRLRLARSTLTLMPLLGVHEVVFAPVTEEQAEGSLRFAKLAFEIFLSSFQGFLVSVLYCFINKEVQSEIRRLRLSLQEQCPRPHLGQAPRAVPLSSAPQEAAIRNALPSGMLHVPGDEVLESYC
Chain of UniProt Q04609 (whole entry, looked up): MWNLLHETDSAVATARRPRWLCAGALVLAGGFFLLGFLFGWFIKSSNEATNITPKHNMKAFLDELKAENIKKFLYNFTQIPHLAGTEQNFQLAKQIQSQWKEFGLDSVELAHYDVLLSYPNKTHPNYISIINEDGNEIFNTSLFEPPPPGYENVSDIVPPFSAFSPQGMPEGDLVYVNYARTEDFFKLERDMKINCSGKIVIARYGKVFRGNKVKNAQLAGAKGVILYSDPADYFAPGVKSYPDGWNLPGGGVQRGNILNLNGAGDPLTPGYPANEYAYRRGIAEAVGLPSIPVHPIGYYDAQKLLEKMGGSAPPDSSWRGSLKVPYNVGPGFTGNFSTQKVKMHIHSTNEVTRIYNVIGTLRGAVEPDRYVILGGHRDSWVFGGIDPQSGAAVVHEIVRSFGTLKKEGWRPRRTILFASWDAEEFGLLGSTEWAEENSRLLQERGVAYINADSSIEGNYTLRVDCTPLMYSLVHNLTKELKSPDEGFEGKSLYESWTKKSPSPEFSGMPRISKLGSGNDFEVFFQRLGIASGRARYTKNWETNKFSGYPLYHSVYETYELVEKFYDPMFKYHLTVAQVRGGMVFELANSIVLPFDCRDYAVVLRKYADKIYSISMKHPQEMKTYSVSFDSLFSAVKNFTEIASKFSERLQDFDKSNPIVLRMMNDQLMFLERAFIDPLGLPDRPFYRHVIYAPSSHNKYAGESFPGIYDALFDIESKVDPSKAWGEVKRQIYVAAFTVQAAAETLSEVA
Chain of UniProt Q7L0J3 (whole entry, looked up): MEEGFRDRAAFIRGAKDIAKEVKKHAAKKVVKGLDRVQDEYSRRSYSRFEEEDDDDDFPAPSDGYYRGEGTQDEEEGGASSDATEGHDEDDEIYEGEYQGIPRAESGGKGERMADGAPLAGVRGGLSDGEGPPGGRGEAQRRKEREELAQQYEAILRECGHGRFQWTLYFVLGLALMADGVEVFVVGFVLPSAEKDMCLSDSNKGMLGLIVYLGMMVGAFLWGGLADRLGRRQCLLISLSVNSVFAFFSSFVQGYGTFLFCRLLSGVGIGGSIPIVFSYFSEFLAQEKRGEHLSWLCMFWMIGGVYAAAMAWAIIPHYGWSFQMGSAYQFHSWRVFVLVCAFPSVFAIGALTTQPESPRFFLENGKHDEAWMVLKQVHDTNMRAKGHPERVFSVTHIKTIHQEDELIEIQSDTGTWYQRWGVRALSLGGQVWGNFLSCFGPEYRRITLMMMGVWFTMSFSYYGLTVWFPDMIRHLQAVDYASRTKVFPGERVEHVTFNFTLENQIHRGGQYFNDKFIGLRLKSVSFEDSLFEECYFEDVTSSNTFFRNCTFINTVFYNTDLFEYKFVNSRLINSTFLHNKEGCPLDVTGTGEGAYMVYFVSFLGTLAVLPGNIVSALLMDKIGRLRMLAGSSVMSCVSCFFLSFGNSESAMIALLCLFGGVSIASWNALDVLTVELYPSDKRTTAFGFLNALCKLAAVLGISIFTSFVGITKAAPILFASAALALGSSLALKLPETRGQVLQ

tested on | test | test system | setting | measurement | value | SMILES
lecA | isothermal titration calorimetry |  | 298 K | -TΔS | 12 ± 1.8 kcal/mol | OC[C@H]1O[C@@H](OCc2cn([C@@H]3O[C@H](CO)[C@@H](n4cc(-c5ccc(-c6cn([C@H]7[C@H](O)[C@@H](O)[C@H](n8cc(CO[C@@H]9O[C@H](CO)[C@H](O)[C@H](O)[C@H]9O)nn8)O[C@@H]7CO)nn6)cc5)nn4)[C@H](O)[C@H]3O)nn2)[C@H](O)[C@@H](O)[C@H]1O
lecA | binding, isothermal titration calorimetry |  | 25 °C | −TΔS | 2.25 ± 0.191 kcal/mol | O=C(COc1ccc2ccccc2c1)N[C@@H](Cc1cn(CCNC(=O)c2ccc(S[C@@H]3O[C@H](CO)[C@H](O)[C@H](O)[C@H]3O)cc2)nn1)C(=O)NCCO
SV2A (Homo sapiens, UniProt Q7L0J3) | radioligand binding, autoradiography | human, post-mortem hippocampus | 5 nM | specific binding | 359 fmol/mg | [3H]C([3H])([3H])c1cnccc1CN1C[C@@H](c2cc(F)c(F)c(F)c2)CC1=O
lecA | isothermal titration calorimetry |  | 25 °C | ΔG | -9.6 ± 0.1 kcal/mol | OC[C@H]1O[C@@H](Oc2ccc(-c3cn([C@H]4[C@H](O)[C@@H](O)[C@H](c5cn([C@H]6[C@H](O)[C@@H](O)[C@H](n7cc(-c8ccc(O[C@@H]9O[C@H](CO)[C@H](O)[C@H](O)[C@H]9O)cc8)nn7)O[C@@H]6CO)nn5)O[C@@H]4CO)nn3)cc2)[C@H](O)[C@@H](O)[C@H]1O
 | M6 formation | female Beagle dog, liver microsomes | 5 mg/kg daily for 4 weeks | Km | 6.2 ± 0.5 µM | NS(=O)(=O)Nc1ncnc(OCCOc2ncc(Br)cn2)c1-c1ccc(Br)cc1
Gastric inhibitory polypeptide receptor (Rattus norvegicus, UniProt P43219) | cAMP, agonist | COS-7 |  | Emax | 80% | CC[C@H](C)[C@H](NC(=O)[C@H](CO)NC(=O)[C@H](Cc1ccc(O)cc1)NC(=O)[C@H](CC(=O)O)NC(=O)[C@H](CO)NC(=O)[C@@H](NC(=O)[C@H](Cc1ccccc1)NC(=O)[C@@H](NC(=O)CNC(=O)[C@@H]1CCCN1C(=O)[C@H](C)NC(=O)[C@@H](N)Cc1ccc(O)cc1)[C@@H](C)O)[C@@H](C)CC)C(=O)N[C@@H](C)C(=O)N[C@@H](CCSC)C(=O)N[C@@H](CC(=O)O)C(=O)N[C@@H](CCCCN)C(=O)N[C@H](C(=O)N[C@@H](Cc1c[nH]cn1)C(=O)N[C@@H](CCC(N)=O)C(=O)N[C@@H](CCC(N)=O)C(=O)N[C@@H](CC(=O)O)C(=O)N[C@@H](Cc1ccccc1)C(=O)N[C@H](C(=O)N[C@@H](CC(N)=O)C(=O)N[C@@H](Cc1c[nH]c2ccccc12)C(=O)N[C@@H](CC(C)C)C(=O)N[C@@H](CC(C)C)C(=O)N[C@@H](C)C(=O)N[C@@H](CCC(N)=O)C(=O)N[C@@H](CCCCN)C(=O)NCC(=O)N[C@@H](CCCCN)C(=O)N[C@@H](CCCCN)C(=O)N[C@@H](CC(N)=O)C(=O)N[C@@H](CC(=O)O)C(=O)N[C@@H](Cc1c[nH]c2ccccc12)C(=O)N[C@@H](CCCCN)C(=O)N[C@@H](Cc1c[nH]cn1)C(=O)N[C@@H](CC(N)=O)C(=O)N[C@H](C(=O)N[C@H](C(=O)N[C@@H](CCC(N)=O)C(=O)O)[C@@H](C)O)[C@@H](C)CC)C(C)C)[C@@H](C)CC
FOLH1 (Homo sapiens, UniProt Q04609) | PET/CT | prostate cancer patients, bone metastases | 60 min post-injection | SUVmax | 16.1 ± 13.2 | O=C([O-])CN(CCN(CC(=O)[O-])Cc1cc(CCC(=O)NCCCCCC(=O)NCCCC[C@H](NC(=O)N[C@@H](CCC(=O)O)C(=O)O)C(=O)O)ccc1O)Cc1cc(CCC(=O)O)ccc1[O-].[68Ga+3]
FLT3 (Homo sapiens, UniProt P36888, D835Y) | kinase activity, radiometric |  | 10 µM, added: 10 µM ATP | remaining activity | 80% | CC1(C)CCN(Cc2ccc(C(=O)NC[C@]3(O)CCCN(c4cc(NCc5ccccc5)ncn4)C3)c(O)c2)CC1
